Published values from different studies.
Each line is one published result; not all experiments were run side by side. “And” joins repeats or separate records; there may be more than shown. ± gives the spread as reported.
rep papain-like protease: Replicase polyprotein 1ab, papain-like protease (rep, Severe acute respiratory syndrome coronavirus 2, UniProt P0DTD1)
rep nsp14: Replicase polyprotein 1ab, nsp14 (rep, Severe acute respiratory syndrome coronavirus 2, UniProt P0DTD1)
rep main protease: Replicase polyprotein 1ab, main protease (rep, Severe acute respiratory syndrome coronavirus 2, UniProt P0DTD1)

The inhibition of O=c1cc(-c2ccc(O)cc2)oc2c([C@@H]3OC[C@H](O)[C@H](O)[C@H]3O)c(O)c([C@@H]3O[C@H](CO)[C@@H](O)[C@H](O)[C@H]3O)c(O)c12 is reported as 53.3% (Replicase polyprotein 1ab, papain-like protease E167A (rep, Severe acute respiratory syndrome coronavirus 2, UniProt P0DTD1, E1730A); enzyme activity, inhibitor; concentration not given, PLpro E167A mutant).
For CC(C)C[C@H](NC(=O)OCc1ccccc1)C(=O)N[C@H](C=O)C[C@@H]1CCNC1=O, the melting temperature was 60.9 ± 0.1 °C (Replicase polyprotein 1ab, main protease C145A (rep, Severe acute respiratory syndrome coronavirus 2, UniProt P0DTD1, C3408A); thermal shift; SARS-CoV-2).
CCCNC(=O)C1OC1C(=O)NC(C(=O)N1CCCC1C(=O)OC)C(C)CC (stereo not drawn) gave an activity of 49% (rep papain-like protease; concentration not given, C111S mutant; baseline: positive control).
With O=C(NC1CCN(c2ncnc3[nH]cnc23)CC1)c1cccc(S(=O)(=O)Nc2ccc3[nH]ncc3c2)c1 the inhibition was 36% (rep nsp14; enzyme activity; SARS-CoV-2; concentration not given).
For CC(C)(C)[C@H](NC(=O)NC1(CS(=O)(=O)C(C)(C)C)CCCCC1)C(=O)N1C[C@H]2[C@@H]([C@H]1C(=O)N[C@H](C#N)C[C@@H]1CCNC1=O)C2(C)C, the ΔTm was 16.7 °C (rep main protease; thermal stabilisation, DSF; 10 µM protein, 20-fold inhibitor; baseline: no inhibitor).
For CNC(=O)C[C@H](Cc1ccncc1)NC(=O)[C@@H](Cc1cccc(Br)c1)NC(=O)[C@@H](N)Cc1cccc(F)c1, the enrichment index was 2500 (rep main protease; immobilized protein counterscreen; baseline: 3CL protease alone).
With CC(C)CC(C(=O)N1CC2(CC1C#N)C(=O)Nc1ccccc12)N(C)C(=O)c1cc2c(F)cc(F)c(F)c2[nH]1 (stereo not drawn) the remaining activity was -0.219% and -0.03% and -0.549% and -0.179% and -0.499% and 0.034% (Replicase polyprotein 1ab, main protease K90R/A193V (rep, Severe acute respiratory syndrome coronavirus 2, UniProt P0DTD1, A3456V/K3353R); 1 µM).
For O=C(NC1CCN(c2ncnc3[nH]cnc23)CC1)c1cccc(NS(=O)(=O)c2ccc(C(F)(F)F)cc2)c1, the inhibition was 77.4% (rep nsp14; enzyme activity; SARS-CoV-2; 3.125 µM).
The inhibition of O=C1CC(=O)c2c(Cl)c(Cl)c(Cl)c(Cl)c21 is reported as about 50% (rep papain-like protease; enzyme activity, inhibitor; 10 µM).

For quick reference, copied from above:
For CNC(=O)C[C@H](Cc1ccncc1)NC(=O)[C@@H](Cc1cccc(Br)c1)NC(=O)[C@@H](N)Cc1cccc(F)c1, the enrichment index was 2500 (rep main protease; immobilized protein counterscreen; baseline: 3CL protease alone).
